Measured values gathered from unrelated publications.
Each line is one published result; not all experiments were run side by side. ± marks the error that the study gave.

Cc1ncsc1-c1ccc(C(C)NC(=O)C2CC(O)CN2C(=O)C(NC(=O)CCCCCCCCCCN2CCCC(Nc3ncc(Cl)c(Nc4ccccc4S(=O)(=O)C(C)C)n3)C2)C(C)(C)C)cc1 (stereo not drawn) — log2 fold change (22Rv1; RNA-seq, measured: ZNF382 mRNA; concentration not given; baseline: DMSO): -2.4
O=C(NCCN1C(=O)CCC1=O)[O][Pt]12([O]C(=O)NCCN3C(=O)CCC3=O)([NH][C@@H]3CCCC[C@H]3[NH]1)[O]C(=O)C(=O)[O]2 — tumour to organ ratio (AUC-based, measured: platinum; BALB/c mice, CT26 tumour; iv; baseline: tumour over kidney): 0.3
O=C(Nc1cnccc1-c1ccc([18F])cc1)c1ccnc(NC(=O)C2CC2)c1 — SUV (ex vivo gamma counting; GSK-3β transgenic mice, late-stage, thalamus; intravenous, 1.26 MBq/animal, 120 min, mean, no P-gp inhibitor): 0.11
CC1Cc2ccccc2N1C(=O)CN1CCN(Cc2ccccc2)CC1 (stereo not drawn) — tissue/plasma ratio (female NMRI mice; intraperitoneal, 10 mg/kg free base, 15 min; baseline: brain over blood): 10.3
COc1ccccc1NC(=O)OC1C(C)C(OC)C=COC2(C)Oc3c(C)c(O)c4c(c3C2=O)C2=NC3(CCN(CC(C)C)CC3)NC2=C(NC(=O)C(C)=CC=CC(C)C(O)C(C)C(O)C1C)C4=O (stereo not drawn) — clearance (CD-1 mouse female, plasma; intravenous, 5 mg/kg): 3.67 mL/min/kg
Cc1nn(-c2cccc(N)c2)c(=O)c2cnc(Nc3ccc(N4CCNCC4)cc3)nc12 — IC50 (DYRK1A (Homo sapiens, UniProt Q13627); enzyme activity, inhibitor): > 10000 nM
CCCC[C@H](NC(=O)CNC(=O)CNC(=O)[C@H](CCCCNC(=O)[C@H](CC(=O)O)NC(=O)C(C)c1ccc(CC(C)C)cc1)NC(=O)CN1CCN(CC(=O)O)CCN(CC(=O)O)CCN(CC(=O)O)CC1)C(=O)N[C@H]1CC(=O)NCCCC[C@@H](C(N)=O)NC(=O)[C@H](Cc2c[nH]c3ccccc23)NC(=O)[C@H](CCCNC(=N)N)NC(=O)[C@@H](Cc2ccccc2)NC(=O)[C@H](Cc2c[nH]cn2)NC1=O (stereo partly drawn) [lutetium-177 labelled] — tumour-to-tissue ratio (C57 mice, tumour; intravenous, 0.037 MBq, 4 h; baseline: kidney): 1.77
Cc1nc(N)nc2c1C(=O)N[C@@H](c1ccc(F)cc1-c1cccc(OCC[18F])n1)C2 — SUV (ex vivo biodistribution; C57BL/6 mice, heart; intravenous, 1 MBq, 30 min): 1.56 ± 0.07
COc1cccc(OC)c1-c1cc(C(=O)NC2(C(=O)O)C3CC4CC(C3)CC2C4)nn1-c1ccc(C(=O)N(C)CCOCCN(C)C(=O)[C@H](CCCCNC(=O)[C@H](CC(C)C)NC(=O)C2OC2C(=O)O)NC(=O)CN2CCN(CC(=O)[O-])CCN(CC(=O)[O-])CCN(CC(=O)[O-])CC2)cc1C(C)C.[177Lu+3] (mixture of isomers) — tissue uptake (mouse, HT-29 xenograft, liver; 4 h post injection): 1.8 %ID/g
Cc1noc(C)c1Cn1cc(N2C(=O)CN(Cc3cccc(OS(=O)(=O)O)c3)C2=O)cn1 — plasma concentration (Sprague-Dawley rat, male; oral, 10 mg/kg of parent drug, 8 h): 764 ng/mL
CC(=O)[O-].O.[Cu+2].[O-]c1ccc(Br)cc1C=NCCN1CCOCC1 — inhibition (DPPH radical scavenging; 160 µM): 52.4%
COC1CN([C@H]2CC[C@H]([C@@]3(C)Oc4c(Cl)cc(C(=O)NCc5c(SC)cc(C)[nH]c5=O)c(C)c4O3)CC2)C1 — log2 fold change (RNA-seq, measured: EPOP mouse homolog; mouse, HT-1376 xenograft, whole blood; dose not given; baseline: vehicle): 0.577
O=C1C2CC3CC1CC(C(=O)N1CCN(c4ccc([N+](=O)[O-])c5ncccc45)CC1)(C3)C2 — revertant fold increase (Salmonella typhimurium; Ames test; TA98; 0.31 µg/well, with S9; baseline: vehicle): 0.8
CN1CCC[C@]1(C)/C=C/S(=O)(=O)NC(=O)Nc1c2c(cc3c1C(O)CC3)CCC2 (stereo partly drawn) — AUC(0-tau) (human, plasma; oral, 12.5 mg twice daily of parent drug, day 14, metabolite of dosed drug): 31600 ng·h/mL
C=C(NC(=O)c1csc(-c2nc3c(cc2O)-c2nc(cs2)C(=O)NC(C(C)O)C(=O)NC(=C(C)OC)c2nc(cs2)C(=O)NC2c4nc(cs4)C(=O)NC(COC(=O)c4c5c6c(cccc6n4O)COC(=O)C(OC4CC(C)(O)C(N(C)C)C(C)O4)C2OC5)c2nc-3cs2)n1)C(N)=O (stereo not drawn) — AUC(0-inf) (female Sprague-Dawley rats, plasma; intravenous infusion, 2 mg/kg): 934 ng·h/mL
CN1CCC[C@]1(C)/C=C/S(=O)(=O)NC(=O)Nc1c2c(cc3c1CCC3)CCC2 — subjects with adverse event (measured: nervous system disorders; human; oral, 100 mg twice daily, 14 days, multiple ascending dose): 0%
CC(C)C[C@H](NC(=O)[C@H](CCCNC(=N)N)NC(=O)[C@H](Cc1ccccc1)NC(=O)[C@H](Cc1ccccc1)NC(=O)[C@@H](NC(=O)[C@H](CO)NC(=O)[C@H](CO)NC(=O)[C@H](CC(=O)O)NC(=O)[C@H](CO)NC(=O)[C@H](CO)NC(=O)[C@H](CC(=O)O)NC(=O)[C@H](CO)NC(=O)[C@H](CO)NC(=O)[C@H](CC(=O)O)NC(=O)[C@H](CO)NC(=O)[C@H](CO)NC(=O)[C@H](CC(=O)O)NC(=O)[C@H](CO)NC(=O)[C@H](CO)NC(=O)[C@H](CC(=O)O)NC(=O)[C@H](CO)NC(=O)[C@H](CO)NC(=O)[C@H](CC(=O)O)NC(=O)[C@H](CO)NC(=O)[C@H](CO)NC(=O)[C@H](CC(=O)O)NC(=O)[C@H](CO)NC(=O)[C@H](CO)NC(=O)[C@@H](N)CC(=O)O)[C@@H](C)O)C(=O)N[C@@H](Cc1ccccc1)C(=O)N[C@@H](CC(N)=O)C(=O)N[C@@H](CCCNC(=N)N)C(=O)N[C@@H](C)C(=O)N[C@@H](CCCCN)C(=O)N[C@@H](CCCNC(=N)N)C(=O)N[C@@H](Cc1c[nH]cn1)C(=O)N[C@@H](Cc1c[nH]cn1)C(=O)NCC(=O)N[C@@H](Cc1ccc(O)cc1)C(=O)N[C@@H](CCCCN)C(=O)N[C@@H](CCCNC(=N)N)C(=O)N[C@@H](CCCCN)C(=O)N[C@@H](Cc1ccccc1)C(=O)N[C@@H](Cc1c[nH]cn1)C(=O)O — peptide concentration (HPLC-UV; human saliva; 1 h, 37 °C, with: initial 1 mg/mL): 0.987 mg/mL
CCCC[C@H](NC(=O)CCCCCCCNC(=O)CN1CCN(CC(=O)O)CCN(CC(=O)O)CC1)C(=O)N[C@H]1CC(=O)NCCCC[C@@H](C(N)=O)NC(=O)[C@H](Cc2c[nH]c3ccccc23)NC(=O)[C@H](CCCNC(=N)N)NC(=O)[C@@H](Cc2ccccc2)NC(=O)[C@H](Cc2c[nH]cn2)NC1=O [fluorine-18 labelled] — urinary excretion (C57 mice, B16/F10 melanoma, urine; intravenous, 0.37 MBq, 1 h): 74.5 ± 2.12%
COc1cccc(OC)c1-c1cc(C(=O)NC2(C(=O)O)C3CC4CC(C3)CC2C4)nn1-c1ccc(C(=O)N(C)CCOCCOCCN(C)C(=O)[C@H](CCCCNC(=O)[C@H](CC(C)C)NC(=O)C2OC2C(=O)O)NC(=O)CN2CCN(CC(=O)[O-])CCN(CC(=O)[O-])CCN(CC(=O)[O-])CC2)cc1C(C)C.[177Lu+3] (mixture of isomers) — tumour-to-liver ratio (mouse, HT-29 xenograft; 4 h post injection, biodistribution; baseline: tumour over liver uptake): 2.59
N=C(N)NCCC[C@@H]1NC(=O)[C@H](CCCNC(=N)N)NC(=O)[C@H](CCCNC(=N)N)NC(=O)[C@H](CCCNC(=N)N)NC(=O)[C@H](Cc2ccc3ccccc3c2)NC(=O)[C@H](Cc2ccccc2)NC(=O)CCSSC[C@@H](C(=O)N[C@@H](CCCCNC(=S)Nc2ccc3c(c2)C(=O)OC32c3ccc(O)cc3Oc3cc(O)ccc32)C(N)=O)NC1=O — degradation (human serum; 6 h, 37 °C): 48%
Cc1cc(NC(=O)c2ccc(Br)cc2)n[nH]1 — logD (octanol/buffer; 67 µM, pH 7.4): 2.78
CC[C@H](C)[C@H](NC(=O)[C@H](CC(N)=O)NC(=O)[C@@H](N)CCSC)C(=O)N[C@@H](CCSC)C(=O)N[C@@H](CC(=O)O)C(=O)N[C@@H](Cc1ccccc1)C(=O)N[C@@H](CC(N)=O)C(=O)N[C@H](C(=O)N[C@@H](CCCCN)C(=O)N[C@@H](CCCCN)C(=O)N[C@@H](CC(C)C)C(=O)N[C@@H](C)C(=O)N[C@@H](C)C(=O)N[C@@H](CC(=O)O)C(=O)N[C@@H](C)C(=O)NCC(=O)N[C@H](C(=O)N[C@@H](Cc1c[nH]c2ccccc12)C(=O)N[C@@H](CC(C)C)C(=O)N[C@@H](CO)C(=O)N[C@@H](CCCNC(=N)N)C(=O)N[C@@H](C)C(=O)N[C@H](C(=O)N[C@@H](CCC(N)=O)C(=O)N[C@@H](Cc1ccccc1)C(=O)N[C@H](C(=O)N[C@@H](CCC(=O)O)C(=O)N[C@@H](CCC(=O)O)C(=O)N[C@@H](CCCCN)C(=O)N[C@@H](CC(C)C)C(=O)NCC(=O)N[C@@H](CCC(N)=O)C(=O)N[C@@H](C)C(N)=O)[C@@H](C)O)C(C)C)[C@@H](C)O)C(C)C — TFE midpoint (circular dichroism; aqueous TFE; 50 µM, pH 7.4, 20 °C): 2.64 ± 0.04 M
CCCCN1C(=O)c2cccc3c(NCCCN4CCOCC4)ccc(c23)C1=O — fluorescence quantum yield (chloroform): 0.64
C=CC(=O)Nc1cccc(Cn2ncc3cnc(Nc4cnn(CCOC)c4)nc32)c1 — percent of control (RIOK3 human; binding, KINOMEscan; 100 nM; lower = stronger binding): 4.5%
O=Cc1ccc2cccc(O)c2n1 — degradation rate constant (chemical stability, HPLC-MS; borate buffered saline; pH 10.2, no N-acetyl-lysine): 0 h⁻¹
CNC(=O)C1CCCN(C(=O)C2CC3CCC2N3C(=O)[C@@H]2C[C@@H](O)CN2C(=O)NCc2cccc(Cl)c2F)C1 (mixture of isomers) — intrinsic clearance (dog liver microsomes): 6 µL/min/mg
CC(=O)N([O-])CCCCCNC(=O)CCC(=O)N([O-])CCCCCNC(=O)CCC(=O)N([O-])CCCCCN.[89Zr+4] — intact complex (mouse plasma; 1 d, 37 °C): 97.8 ± 1%
C/C(N)=N/C(=N\S(=O)(=O)c1ccc(C(F)(F)F)cc1)N1C[C@H](c2ccccc2)C(c2ccc(Cl)cc2)=N1 — Tmax (male C57BL/6 mouse, lung; intravenous, 10 mg/kg): 15 min
CC(C)Cn1cc(Cc2cccc(OC(C)(C)C(=O)O)c2)c2cc(F)c(C(=O)N[C@@H](C)c3cccc(C(C)(C)C)c3)cc21 — half-life (metabolic stability; mouse, liver microsomes): > 60 min
CCCCN1C(=O)c2cccc3c(NCCN4CCOCC4)ccc(c23)C1=O — absorption maximum (ethyl acetate): 426 nm
CNS(=O)(=O)Nc1nccc(Cc2c(C)c3ccc(Oc4ncccc4F)cc3oc2=O)c1F — IC50 (SCaBER; cell viability; 7 days): 5.17 nM
CCCCN1C(=O)c2cccc3c(NCCCCCN4CCOCC4)ccc(c23)C1=O — absorption maximum (chloroform): 428 nm
O=C(Nc1cnccc1-c1ccc([18F])nc1)c1ccnc(NC(=O)C2CC2)c1 — median SUV (PET imaging; FVB/NJ mice, both sexes, liver; intravenous, 60 min): 8.04

For quick reference, copied from above:
C=C(NC(=O)c1csc(-c2nc3c(cc2O)-c2nc(cs2)C(=O)NC(C(C)O)C(=O)NC(=C(C)OC)c2nc(cs2)C(=O)NC2c4nc(cs4)C(=O)NC(COC(=O)c4c5c6c(cccc6n4O)COC(=O)C(OC4CC(C)(O)C(N(C)C)C(C)O4)C2OC5)c2nc-3cs2)n1)C(N)=O (stereo not drawn) — AUC(0-inf) (female Sprague-Dawley rats, plasma; intravenous infusion, 2 mg/kg): 934 ng·h/mL
CCCC[C@H](NC(=O)CNC(=O)CNC(=O)[C@H](CCCCNC(=O)[C@H](CC(=O)O)NC(=O)C(C)c1ccc(CC(C)C)cc1)NC(=O)CN1CCN(CC(=O)O)CCN(CC(=O)O)CCN(CC(=O)O)CC1)C(=O)N[C@H]1CC(=O)NCCCC[C@@H](C(N)=O)NC(=O)[C@H](Cc2c[nH]c3ccccc23)NC(=O)[C@H](CCCNC(=N)N)NC(=O)[C@@H](Cc2ccccc2)NC(=O)[C@H](Cc2c[nH]cn2)NC1=O (stereo partly drawn) [lutetium-177 labelled] — tumour-to-tissue ratio (C57 mice, tumour; intravenous, 0.037 MBq, 4 h; baseline: kidney): 1.77
Cc1ncsc1-c1ccc(C(C)NC(=O)C2CC(O)CN2C(=O)C(NC(=O)CCCCCCCCCCN2CCCC(Nc3ncc(Cl)c(Nc4ccccc4S(=O)(=O)C(C)C)n3)C2)C(C)(C)C)cc1 (stereo not drawn) — log2 fold change (22Rv1; RNA-seq, measured: ZNF382 mRNA; concentration not given; baseline: DMSO): -2.4
O=Cc1ccc2cccc(O)c2n1 — degradation rate constant (chemical stability, HPLC-MS; borate buffered saline; pH 10.2, no N-acetyl-lysine): 0 h⁻¹
